Published values pooled from the literature.
A part holds a random share of what one study measured. Substitutions count along the parent as printed.

Set 1 — technique: RNA Bind-n-Seq; form: RNA; matrix: in vitro; tested at: 365 nM; relative to: no-protein control; direction: higher = stronger binding
Target: RNA binding protein fox-1 homolog 2, RRM domain, GST-SBP tag (RBFOX2, Homo sapiens, UniProt O43251-10, residues 100-194)
Setting: natural RNA segment, single round, ends assumed
Residues (chain): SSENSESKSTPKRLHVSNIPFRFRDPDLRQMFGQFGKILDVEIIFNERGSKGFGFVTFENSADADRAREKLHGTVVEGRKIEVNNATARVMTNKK
Sequence	RBNS enrichment (R)
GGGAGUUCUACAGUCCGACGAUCAGAAUACAAGUGCACAGGCGGCAACUCCUUACUUCCAGCAAAAUUGAAACUGCUGUCUCUGAAACUCUUCCUCCAUUAGAGCGCUCCAGUAACCCAUGAAGGCCCACAGCUGGAAUUCUCGGGUGCCAA	0.573
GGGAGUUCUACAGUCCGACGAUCUGCCUUUGAAUGCUAUAGCAUAUUUAGUGUGAGGACUGGGGACCCAGUAAGAUUUAGAGAGCAAUAUAGCAAAACCUGUCAUCUUGGACCUUUUUCACAGCUGAUGCUAUUGGAAUUCUCGGGUGCCAA	2.05
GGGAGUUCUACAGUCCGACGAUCCAAAUGACAGCAGGAAACCACGGCAUAGUGCCACCAUCCAGGGUGCAGGGACAGAUGAUGUGCUGUCCUGUAUGAACCAUGCAUUCCAAUGGUACAACUGCCCAAAUCCAUGGAAUUCUCGGGUGCCAA	1.48
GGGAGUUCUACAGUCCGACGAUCCUCUGUAAAGUUCCUCAUCCCUGUGAAGCAGGGAAAGAACAGAGGUGCCUCUGGACUGCAGGAGAAAGGCGUCGUGCCAGGCAGUAUCCUGUGGAGGGAGGAGGGUGUACUGGAAUUCUCGGGUGCCAA	0.487
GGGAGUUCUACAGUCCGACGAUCCUGUUUGUUCCCACUUAUGUGAGUGACCCCAUCCAUCCAUGACCAGAGGAUUAUUUUCCUGCCUUGGCAGAGGAGGAGGAGUCAAGGGAGCAGGGCAGCUCUACCAGGCAUGGAAUUCUCGGGUGCCAA	0.62
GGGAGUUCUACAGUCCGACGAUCGUCUUAUGUAGGGAGGGGGCAAGUAUGAAGUAAGGUAAUUAUAUACUACUCUCAUUCAGGAUUCUUGCUCCCAUGCUGCUGUCCCUUCAGGCUCACAUGCACAGGAAUGCUGGAAUUCUCGGGUGCCAA	0.753
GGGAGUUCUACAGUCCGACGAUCGCACUCUGAUUAGGAUAUCCACUUUGCAAAUAAAACCAAAUGUUUUGUCAACAUGAUGGUAAAAAGGAAAGAAAUCUGUUACAAAGACAAAUUAGAGGGAAAUUUGUCCUUGGAAUUCUCGGGUGCCAA	0.767
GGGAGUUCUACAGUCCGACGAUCUUGAGGCUCCCCUGGGAACUAGAGCCAGGAACAGCCAGUGGCACUGACAAGGGGACGGAGUCCAAGGCGUUAUUGGGCCACCUGACAGCUGGACAGAAAAGGGGCAGACAUGGAAUUCUCGGGUGCCAA	0.345
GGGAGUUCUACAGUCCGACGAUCCUCCAGCUAGCCUACACUGAUCCUGCCUAAGCAGGGUCCUGAACGCCGGAGACAGGGUCUGCUGGAGCUGGGAGACGGCGCUGCAGAUAGAUGGCUACAGGAGCUUUUGGUGGAAUUCUCGGGUGCCAA	0.417
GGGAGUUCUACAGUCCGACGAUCCCAAACCCAUGGUGCUUUCCCCCCGACCCCACUCAACCUACAUUCUGAGGAGGGGAGGGAUGGAUCAGAGGCCAUAGUGGCCCCCUGGAUAAUCCUGACAUGGGGUAGAGUGGAAUUCUCGGGUGCCAA	0.259
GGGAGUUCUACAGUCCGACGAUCGUAAAUGAAAAUGCAGCUCUGCACGAGUUUGAAACCGUCAUACCUCCUUCUAUUAGGAAUGGCAUAUACUGAGGUGGUCGUAAGUCUUAACUUCUAAAAUUUUAAAUAAAUGGAAUUCUCGGGUGCCAA	0.644
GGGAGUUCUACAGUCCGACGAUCAAGCAGUUUUUCCUUUUAUUGCAGUUUUUGUUUAUCUGCCAUAGAAUUUCCUUAUACUGUGGCUUGGUAUUAUUCAAGAUUAGCUAUUUCGCUGGUAUUACAUCUUUUUAUGGAAUUCUCGGGUGCCAA	0.818

Set 2 — technique: protein-binding microarray; form: double-stranded DNA, one strand shown; matrix: in vitro; tested at: 940 nM top; setting: 60-bp whole probe; added: salmon DNA 0.4 mg/ml; relative to: random background probes; direction: higher = stronger binding; all sequences stand within: GCCTAGCAC … GTCTTGATTCGCTTGACGCTGCTG
Target: Interferon regulatory factor 5, full length, phosphomimetic (IRF5, Homo sapiens, UniProt Q13568-2, residues 1-514, S451D/S453D/S456D/S462D)
Sequence	fitted relative affinity
GACGGTTCCGACACTGGGGACGTGCTA	0.237 z-score
TTAGCTTTCAGTATCGATTAGTGCTAG	6.39 z-score
GAGGAACTGAGTCTCGAGACGTGCTAG	0.505 z-score
GTAGGTCTCCTTCTCCTTTAGTGCTAG	0.332 z-score
TCATTTCTATCTCTGTTACTGTGCTAG	1.96 z-score
GACGGTTTCGACTTTAGGGACGTGCTA	7.07 z-score
TGAGGTTTCGACTTTCGGTTAGTGCTA	7.1 z-score
GACGGTATCGACAATCGGGACGTGCTA	3.55 z-score
TTAGGACTGCTTCCCCTTTAGTGCTAG	-0.126 z-score
TTAGGACTGGGATTGGGTTAGTGCTAG	-0.148 z-score
GACGAACTGAGCCTCGAGACGTGCTAG	-0.483 z-score
CAGGAAATCAACTTTTTTTAAGTGCTA	0.0588 z-score
GCCGGTTTCGACACTGGGGACGTGCTA	8.53 z-score
GACGGACTGGGGTATCTGGACGTGCTA	0.103 z-score
TTAGATCTCAGTCTCGATTAGTGCTAG	3 z-score
GACGGTATCGGGTTTCGGGACGTGCTA	5.74 z-score
GACGTACTGGGTATCGGGACGTGCTAG	0.683 z-score
TCAGGTATCCTTATCCTTTAGTGCTAG	0.486 z-score
GACGGTCTCGGACTGGGCACGTGCTAG	0.388 z-score
TCTCTGCTCCTTCTGACATCGTGCTAG	3.34 z-score
TCATTTATGCACTCTTTAACTGTGCTA	0.68 z-score
TCAAAAATGATTGGTTGACTGTGCTAG	-0.465 z-score
GTAGATTCCAGTTTCGATTAGTGCTAG	8.78 z-score
GGGATGGTGGGGCTCCTCCTGTGCTAG	0.106 z-score
TTCGATTTCAGTATCGATTAGTGCTAG	6.46 z-score

Set 3 — technique: DHFR PCA, deep sequencing; matrix: yeast; added: (+)-ABA 0.0091 µM; relative to: wild-type fitted maximum; direction: higher = stronger binding
Target: ABI1, truncated, D143A, DHFR fusion (Arabidopsis thaliana)
Setting: methotrexate growth selection, single substitutions
Starting sequence: PYL1, truncated, DHFR fusion (Arabidopsis thaliana); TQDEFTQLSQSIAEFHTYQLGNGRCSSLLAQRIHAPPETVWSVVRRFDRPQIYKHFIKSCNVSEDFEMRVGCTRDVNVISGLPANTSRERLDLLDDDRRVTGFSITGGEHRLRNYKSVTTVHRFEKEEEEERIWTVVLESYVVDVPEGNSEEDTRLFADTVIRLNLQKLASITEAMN; partner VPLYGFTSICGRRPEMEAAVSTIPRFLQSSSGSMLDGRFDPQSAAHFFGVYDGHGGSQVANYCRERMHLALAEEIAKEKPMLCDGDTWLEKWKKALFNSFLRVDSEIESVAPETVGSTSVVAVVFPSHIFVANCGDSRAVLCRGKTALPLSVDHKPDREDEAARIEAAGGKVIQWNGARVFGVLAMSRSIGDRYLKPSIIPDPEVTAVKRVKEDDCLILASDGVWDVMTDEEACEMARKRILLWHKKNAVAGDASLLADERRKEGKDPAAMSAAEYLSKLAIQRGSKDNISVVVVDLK
Change	relative binding score [%]
T173V	10.4
S42W	0.509
Y115I	1.5
T86G	-1.8
I162R	-1.93
E152V	5.94
G148K	-0.62
V40S	-1.52
I172G	-7.34
W41L	0.7
F66S	3.74
Q31P	0.0971
H122Y	-5.26
S171A	41.3
A35K	-2.57
E89D	10.1
Q7Y	20.7
I105N	1.81
I172P	-7.54
R98K	30.9
C72R	-1.32
E152P	-2.82
V142I	24
I12T	-0.812
S59D	26.1

Set 4 — target: CCNB2, cyclin fold, Cln2 fusion (human); technique: yeast growth competition, sequencing; matrix: yeast; setting: weak parent motif; relative to: not given; direction: higher = stronger binding
Starting sequence: AKAP12 docking peptide (human); GSPLKKLFTSTGL
Change	normalised enrichment score
ASPLKKLFTSTGL [G1A]	0.62
GSPLKKLLTSTGL [F8L]	-0.657
GSPLKKLATSTGL [F8A]	-0.447
GSPAKKLFTSTGL [L4A]	-0.164
GSALKKLFTSTGL [P3A]	0.758
GSPLKKLFTSAGL [T11A]	-0.768
GSPLAKLFTSTGL [K5A]	-0.0923

Some of these lines once more (set 2):
Sequence	fitted relative affinity
GACGGACTGGGGTATCTGGACGTGCTA	0.103 z-score
TTAGATCTCAGTCTCGATTAGTGCTAG	3 z-score
GACGGTATCGGGTTTCGGGACGTGCTA	5.74 z-score
GACGTACTGGGTATCGGGACGTGCTAG	0.683 z-score
TCAGGTATCCTTATCCTTTAGTGCTAG	0.486 z-score
GACGGTCTCGGACTGGGCACGTGCTAG	0.388 z-score
TCTCTGCTCCTTCTGACATCGTGCTAG	3.34 z-score
TCATTTATGCACTCTTTAACTGTGCTA	0.68 z-score
TCAAAAATGATTGGTTGACTGTGCTAG	-0.465 z-score
